Experimental data pooled from the literature.
Numbers after ± are the reported error.

assay | test system | setting | how to read | measurement | result | Compound
fluorescence | PBS with 1% DMSO | 10 µM, 48 h, 37 °C | relative to: initial intensity | remaining fluorescence intensity | ~60% | CC1(C)COC(c2c(O)ccc3c4c(c(=O)oc23)CNCC4)OC1
– | human EDTA plasma | 15 ng/mL, 6 h, room temperature, low QC | – | remaining compound | 105% | Cn1cncc1-c1c(F)cncc1NC(=O)c1c(N)nn2cc(F)cnc12
HPLC | ammonium bicarbonate 0.1 M | 180 µM, 14 days, pH 9.0, 37 °C, deamidation stability | – | remaining peptide | 57.3 ± 4.4% | CC(C)C[C@@H]1NC(=O)CNC(=O)[C@H](CC(N)=O)NC(=O)[C@H](CCCNC(=N)N)NC(=O)[C@H]([C@@H](C)O)NC(=O)[C@@H]2CSSC[C@@H]3NC(=O)[C@H]([C@@H](C)O)NC(=O)CNC(=O)CNC(=O)[C@H](C(C)C)NC(=O)[C@@H]4CSSC[C@H](NC(=O)[C@H]([C@@H](C)O)NC(=O)[C@H](CSSC[C@H](NC(=O)[C@H](C(C)C)NC(=O)[C@@H]5CCCN5C1=O)C(=O)NCC(=O)N[C@@H](CCC(=O)O)C(=O)N[C@@H]([C@@H](C)O)C(=O)N4)NC(=O)CNC(=O)[C@@H]1CCCN1C(=O)[C@H]([C@@H](C)O)NC(=O)[C@H](CC(N)=O)NC3=O)C(=O)N[C@@H](CO)C(=O)N[C@@H](Cc1c[nH]c3ccccc13)C(=O)N1CCC[C@H]1C(=O)N[C@@H](C(C)C)C(=O)N2
– | monkey plasma | 1 µM, 5.00 h, pH 7.4, 37 °C | – | remaining compound | 78.5% | N#Cc1ccc(Nc2nc(N)cc(Oc3c(F)cc(-c4ccc(C#N)cc4)cc3F)n2)cc1
12G5 competition, SUP-T1 cells | human plasma | concentration not given, 2 h | – | remaining activity | 4 ± 0.5% | CSCC[C@H](NC(=O)[C@H](CCCCN)NC(=O)[C@H](CCCNC(=N)N)NC(=O)[C@H](CO)NC(=O)[C@H](Cc1c[nH]c2ccccc12)NC(=O)[C@H](CCCNC(=N)N)NC(=O)[C@H](CC(C)C)NC(=O)[C@@H](N)CCSC)C(=O)N1CCC[C@H]1C(=O)N[C@@H](CS)C(=O)N[C@H](C(=O)N[C@@H](CO)C(N)=O)C(C)C
HPLC | ammonium bicarbonate 0.1 M | 180 µM, 7 days, pH 9.0, 37 °C, deamidation stability | – | remaining peptide | 99.2 ± 0.6% | CC(C)C[C@@H]1NC(=O)[C@H](CCCCN)NC(=O)[C@H](CC(N)=O)NC(=O)[C@H](CCCNC(=N)N)NC(=O)[C@H]([C@@H](C)O)NC(=O)[C@@H]2CSSC[C@@H]3NC(=O)[C@H]([C@@H](C)O)NC(=O)CNC(=O)CNC(=O)[C@H](C(C)C)NC(=O)[C@@H]4CSSC[C@H](NC(=O)[C@H](CCCCN)NC(=O)[C@H](CSSC[C@H](NC(=O)[C@H](C(C)C)NC(=O)[C@@H]5CCCN5C1=O)C(=O)NCC(=O)N[C@@H](CCC(=O)O)C(=O)N[C@@H]([C@@H](C)O)C(=O)N4)NC(=O)CNC(=O)[C@@H]1CCCN1C(=O)[C@H]([C@@H](C)O)NC(=O)[C@H](CC(N)=O)NC3=O)C(=O)N[C@@H](CO)C(=O)N[C@@H](Cc1c[nH]c3ccccc13)C(=O)N1CCC[C@H]1C(=O)N[C@@H](C(C)C)C(=O)N2
LC-MS | Sprague-Dawley rat liver microsomes | 10 µM, 20 min, pH 7.4, added: NADPH | relative to: time 0 | remaining parent compound | 104% | Cc1cc(C(=O)NC(C)(C)COc2cccc3c2C(N)=NS(=O)(=O)N3)cc(C)n1
MS | human liver microsomes | 10 µM, 0, 30, 60 min | – | remaining parent compound | 10% | COc1cc(C2C3=C(COC3=O)N(CCO)c3cc4c(cc32)CCC4)cc(OC)c1OC (stereo not drawn)
12G5 competition, SUP-T1 cells | human plasma | 20 µM, 8 h, 37 °C | – | remaining activity | 30 ± 3% | CSCC[C@H](NC(=O)CN)C(=O)N[C@@H](CCCNC(=N)N)C(=O)N[C@@H](Cc1c[nH]c2ccccc12)C(=O)N[C@@H](CO)C(=O)N[C@@H](CCCNC(=N)N)C(=O)N[C@@H](CCCCN)C(=O)N[C@@H](CCSC)C(=O)N1CCC[C@H]1C(=O)N[C@@H](CS)C(=O)N[C@H](C(=O)N[C@@H](CO)C(N)=O)C(C)C
– | human liver microsomes | 1 µM, 20 min, pH 7.4 | – | remaining compound | 26.3% | CCOc1ccc2ccc(=O)oc2c1
– | human liver microsomes | 60 min | – | remaining parent | 70.9 area % | CC(C)OC(=O)c1sc(Nc2ncccn2)nc1-c1cnccn1
12G5 competition, SUP-T1 cells | human plasma | concentration not given, 2 h | – | remaining activity | 24 ± 4% | CC(C)C[C@H](NC(=O)[C@@H](N)C(C)C)C(=O)N[C@@H](CCCNC(=N)N)C(=O)N[C@@H](Cc1c[nH]c2ccccc12)C(=O)N[C@@H](CO)C(=O)N[C@@H](CCCNC(=N)N)C(=O)N[C@@H](CCCCN)C(=O)N[C@@H](CC(C)C)C(=O)N1CCC[C@H]1C(=O)N[C@@H](CS)C(=O)N[C@H](C(=O)N[C@@H](CO)C(N)=O)C(C)C
LC-MS | human liver microsomes | 10 µM, 60 min, pH 7.4, added: NADPH | relative to: time 0 | remaining parent compound | 15% | O=C1CC2(CCCC2)CC(=O)N1CCCCN1CCN(c2ncccn2)CC1
12G5 competition, SUP-T1 cells | human plasma | 20 µM, 2 h, 37 °C | – | remaining activity | 71 ± 2% | CSCC[C@H](N)C(=O)N[C@H](CC(C)C)C(=O)N[C@@H](CCCNC(=N)N)C(=O)N[C@@H](Cc1c[nH]c2ccccc12)C(=O)N[C@@H](CO)C(=O)N[C@@H](CCCNC(=N)N)C(=O)N[C@@H](CCCCN)C(=O)N[C@@H](CC(C)C)C(=O)N1CCC[C@H]1C(=O)N[C@@H](CS)C(=O)N[C@H](C(=O)N[C@@H](CO)C(N)=O)C(C)C
– | pooled BALB/c mouse plasma | 1 µM, 0 min | – | remaining compound | 100% | CC[N+]1(C)CCN(c2ccc(NC(=O)c3cccc(C)n3)cc2)CC1

Repeated from above:
assay | test system | setting | how to read | measurement | result | Compound
– | human liver microsomes | 60 min | – | remaining parent | 70.9 area % | CC(C)OC(=O)c1sc(Nc2ncccn2)nc1-c1cnccn1
